Measured values from different studies.
Every numbered part comes from another study and shows a few of its results, in no order. Substitutions count along the parent as printed.

Sample 1 — technique: RNA Bind-n-Seq; form: RNA; matrix: in vitro; concentration: not given; baseline: input RNA pool; direction: higher = stronger binding
Target: RING finger protein unkempt homolog, zinc fingers 1-6, GST-SBP tag (UNK, Homo sapiens, UniProt Q9C0B0, residues 30-357)
UniProt Q9C0B0, sequence (30-357, looked up): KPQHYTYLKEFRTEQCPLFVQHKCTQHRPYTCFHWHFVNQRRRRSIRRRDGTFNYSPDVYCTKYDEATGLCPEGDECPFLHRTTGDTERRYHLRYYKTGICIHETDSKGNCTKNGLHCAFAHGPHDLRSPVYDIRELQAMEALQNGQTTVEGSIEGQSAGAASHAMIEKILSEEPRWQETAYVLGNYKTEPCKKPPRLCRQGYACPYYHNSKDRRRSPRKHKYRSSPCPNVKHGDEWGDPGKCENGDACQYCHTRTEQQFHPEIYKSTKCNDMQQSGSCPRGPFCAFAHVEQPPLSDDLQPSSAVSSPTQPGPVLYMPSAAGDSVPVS
Notes: RNA with constant flanks, human-mouse chimeric sites, ends assumed
All sequences stand within: GGGAGUUCUACAGUCCGACGAUC … CAACAGAGGAUUGAGCAUCA
The bound/input enrichment of `GGUGGGGUGGUCAUUGCCGUUUGAGCUGCUGAUUUUCAUGAGUCGCCUUCAAAACUCUCGUGUAGGGUUGACAAUGUAAGGGGUGGGGAAAUCUAGCUUAUUCUUUUAUUUUCAAGUCCA` is reported as 6.58 ratio.
The bound/input enrichment of `UGUAGUUUCUUGAUUUAUCAUUUUUCUCUUUUCUUUCUUUCCUUUAGGAAAAGCCUAAAGAUUAGGUUGUAAGAAAAACAGAAGCCAGCCAUGUUUCGAAGACCUGUCAGGUAUUUCGUC` is reported as 0.222 ratio.
With `UGUGCCCCACAAGAUCCUACCUGAGUGGCAGCUGAAGUUGACUCCCUCCCCUUCCCUGAACCCCCCCCCACUGCCCCCCCAUCCCCCAGUGUCGGCUGAGAUGUUGCCUCUGCACGGUUC` the bound/input enrichment was 1.32 ratio.
For `UAAGUUAUUUUGUACAGCUUUGUAAAUUCUUAACAUUUUUAUAUUGCCAUGUUUAUUUUGUUUGGGUAAUUUGGUUCAUUAAGUACAUAGCUAAGGUACAUCUUUCAGUAAUUAUAGAUU`, the bound/input enrichment was 2.15 ratio.
For `GAACCUGUUGCUGAUGAUGAAGAUGAGGAAGACAAUGAUGAUGUUGAACCCAUUUCUGAAUUUCGAUUUGUGCCCAGUGAUAAGUCAGCAUUGGAGGCGAUGUUCACAGCAAUGUGUGAG`, the bound/input enrichment was 0.326 ratio.
`CUGAAAAACACAGAUAUCAAAGUUGUUGACUUUGGAAGUGCAACAUAUGAUGAUGAACAUCACAGUACUUUGGUGUCUACCCGGCACUACAGAGCUCCCGAGGUCAUUUUGGCUUUAGGU` gave a bound/input enrichment of 0.388 ratio.
With `UAAGUCCUGUGCCAGCACUUCGCUCAUAAAGUUUUAAAUUCUGGACCAAUAGUGUUUAUCUUUAGAAUAUUGUAUCCAAUACUUUAUCUAGUAUGUAACUCACUCUUACUGAUAAUAAAA` the bound/input enrichment was 5.44 ratio.
The bound/input enrichment of `UCUGGUCACACUCGUGUGUAUGGUGUUUGCUUUGUGGACACUUCACUGGGCAAGUUUUUCAUCGGCCAGUUUUCGGAUGAUCGCCAUUGUUCGAGAUUUAGGACGCUAGUGGCUCACUAU` is reported as 0.231 ratio.
`UUGCUACUGACUCCCUGGGUCAAGUUCCUGUGGGAGUCAUACAGGCAGUGUUUGGACCUUCUUAGAAACAAUUCUAGAGUAGAGCGCCUUUACCAUGAUAUCGCCCAACAAGCUUUCAAA` has a bound/input enrichment of 0.207 ratio.
`AGAAAGCAAAACUUGGAAAGAUUUAAGAAAGGAGAUGUAAGAUUCUUGAUUUGCACAGAUGUAGCUGCUAGAGGGAUUGAUAUCCAUGGCGUUCCUUAUGUGAUCAACGUCACCCUGCCU` gave a bound/input enrichment of 0.3 ratio.
With `UAAGUUAUUUUGUACAGCUUUGUAAAUUCUUAACAUUAAUUUGUAAACAUGUUUAUUUUGUUUGGGUAAUUUGGUUCAUUAAGUACAUAGCUAAGGUAAUGAACAUCGUAAUUAUAGAUU` the bound/input enrichment was 0.546 ratio.

Sample 2 — target: CCNF, cyclin fold, Cln2 fusion (human); technique: yeast growth competition, sequencing; matrix: yeast; notes: weak parent motif; baseline: not given; direction: higher = stronger binding
Starting sequence: DNAH7 docking peptide (human); HELFQRLDFDNDG
`L7A` — result for “normalised enrichment score”: -0.377.
Under “normalised enrichment score”, `F9A` is recorded as -0.5.
Under “normalised enrichment score”, `E2A` is recorded as 0.392.
For `F4A`, “normalised enrichment score” read 0.113.
`H1A`: “normalised enrichment score” -0.0616.
Under “normalised enrichment score”, `D10A` is recorded as -0.364.
`R6A` — result for “normalised enrichment score”: -0.282.

Sample 3 — technique: protein-binding microarray; form: double-stranded DNA, one strand shown; matrix: in vitro; concentration: 250 nM; notes: 60-bp whole probe; together with: salmon DNA 0.4 mg/ml; baseline: random background probes; direction: higher = stronger binding; all sequences stand within: GCCTAGCAC … GTCTTGATTCGCTTGACGCTGCTG
Target: Interferon regulatory factor 7, full length, phosphomimetic (IRF7, Homo sapiens, UniProt Q92985, residues 1-503, S101K/S471D/S472D/S475D/S476D/S477D/S483D/S484D/S487D)
UniProt Q92985, sequence (whole entry, unmodified, looked up): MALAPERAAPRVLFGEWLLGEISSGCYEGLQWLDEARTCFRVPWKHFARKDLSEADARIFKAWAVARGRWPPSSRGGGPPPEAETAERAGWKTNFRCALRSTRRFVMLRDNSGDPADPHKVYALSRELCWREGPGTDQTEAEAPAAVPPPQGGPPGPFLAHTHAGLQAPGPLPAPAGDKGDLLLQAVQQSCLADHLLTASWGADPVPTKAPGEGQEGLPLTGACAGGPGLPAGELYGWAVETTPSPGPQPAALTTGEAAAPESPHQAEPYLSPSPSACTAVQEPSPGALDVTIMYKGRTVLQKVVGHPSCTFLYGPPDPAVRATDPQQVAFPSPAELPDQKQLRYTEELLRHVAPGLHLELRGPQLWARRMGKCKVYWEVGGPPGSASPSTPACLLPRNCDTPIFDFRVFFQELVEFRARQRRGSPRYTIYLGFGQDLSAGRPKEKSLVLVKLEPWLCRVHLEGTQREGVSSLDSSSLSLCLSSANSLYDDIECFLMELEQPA
The log fluorescence of `GACGATATCGGGACTGGAAACGTGCTA` is reported as 0.148 z-score.
With `TTAGGTCTCGCTTTCGGTTAGTGCTAG` the log fluorescence was 6.49 z-score.
`TTAGGTATACTTTTCCTTTAGTGCTAG` gave a log fluorescence of 0.633 z-score.
For `TTAGGTTTCGACACTAGGTTAGTGCTA`, the log fluorescence was 3.72 z-score.
`GACGAACTGCTTTTCCTGACGTGCTAG` has a log fluorescence of 0.0848 z-score.
`TTAGGACCGGGTCTCGGTTAGTGCTAG` gave a log fluorescence of 2.76 z-score.
For `GACGGCCTGGGGTATCGGGACGTGCTA`, the log fluorescence was -0.772 z-score.
The log fluorescence of `GACGATCTAAGTCTCGAGACGTGCTAG` is reported as 0.596 z-score.
`GACGGTATCCATATCCTGACGTGCTAG` has a log fluorescence of 0.365 z-score.
With `ACATCTCTCTTAAATAGGGACGTGCTA` the log fluorescence was 0.76 z-score.
For `GGCGGTATCCTACTGCTGACGTGCTAG`, the log fluorescence was -0.723 z-score.
`GACGGTCTCCTTATCCTGTCGTGCTAG` gave a log fluorescence of 0.656 z-score.
`TTAGAGCTGAGTTTCGATTAGTGCTAG` gave a log fluorescence of 6.65 z-score.
For `TCAACTTTTATTTTCAGACTGTGCTAG`, the log fluorescence was 0.267 z-score.
`TTACATCTCAGACTGGATTAGTGCTAG` gave a log fluorescence of 0.393 z-score.
`TCAATTCTCCACTTGTGACTGTGCTAG` gave a log fluorescence of 1.3 z-score.
`TCACTTTTCATGCTCTTACTGTGCTAG` has a log fluorescence of 1.07 z-score.
`ATATCTTATCCTATCAGTTTGTGCTAG` has a log fluorescence of 1.03 z-score.
With `TGCTCTCCGGGGTCTGTGAGGGTGCTA` the log fluorescence was -0.293 z-score.
For `GTCGGACTGCTTTTCCTGACGTGCTAG`, the log fluorescence was 0.613 z-score.
The log fluorescence of `TTAGAACTGGGGACTGGTTTAGTGCTA` is reported as -0.116 z-score.
With `TGCATTCCCTTTCTCAACCTGTGCTAG` the log fluorescence was 2.05 z-score.
With `GTAGATCTCAGACTGGATTAGTGCTAG` the log fluorescence was -0.269 z-score.
`ACCACTCTTGCTTTTTAGATGTGCTAG` has a log fluorescence of 0.00753 z-score.
For `GACGATATCGGGACTGGAGGCGTGCTA`, the log fluorescence was -0.329 z-score.

Sample 4 — technique: RNA Bind-n-Seq; form: RNA; matrix: in vitro; concentration: 365 nM; baseline: no-protein control; direction: higher = stronger binding
Target: RNA binding protein fox-1 homolog 2, RRM domain, GST-SBP tag (RBFOX2, Homo sapiens, UniProt O43251-10, residues 100-194)
Notes: natural RNA segment, single round, ends assumed
All sequences stand within: GGGAGUUCUACAGUCCGACGAUC … UGGAAUUCUCGGGUGCCAA
Residues (chain): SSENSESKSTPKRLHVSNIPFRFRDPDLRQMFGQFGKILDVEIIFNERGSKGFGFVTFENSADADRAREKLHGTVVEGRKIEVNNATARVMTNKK
Under “RBNS enrichment (R)”, `UCCUUUAUUUCAUAAGUUCAGAUCAUCUUAAAUGAAAAUGCCAUGAUUAUCUGCAGUUAAGUAGAUGACAGCUAUUCUACAUCAGACUUGAUUUUUGUCAGCUAAUUACA` is recorded as 0.957.
`UUGCUUGAGAGGGUUUCUUUUACUUCAAAAUCUUUCUUCAGGGAGCAAGACAUGAACUGACUAAUUGGUAUCCACUACUUGUACAGCUUACAUAAAUGAGUUGAUGAUAU`: “RBNS enrichment (R)” 0.354.
Under “RBNS enrichment (R)”, `GUGCAAGUGUGCACACGUUUGUGGAGAGGAGGGUGUUCUGGCCUGAGAAGGUAAAGAAGAGGCAUGUCCAGUAUGCUUUGCAGGGUGUGUUUGCUCUUUUCCAUGCCCAU` is recorded as 1.29.
`GAGGUCUUGAUUUCACCAUUGUCGGUGAAGAAAAUUUUCAAUAAAUAUGUAUUACCCGUCUGAAGCUAAAGAUACUGUGUAACGGACUCUUUCCACUUGUCCCAUUUCUC` — result for “RBNS enrichment (R)”: 0.457.
`GAGAAAUCUAUUGGUCUGAAGGUUUCUGAACCUCUUUCUGGUUCUCAGCAGAAGUAACUGAAGUAGAUCAGGAAGGGGCUGCCUCAGGAAAAUUCCUAGAUCCUAGGAAU` — result for “RBNS enrichment (R)”: 0.264.
For `GCUGCAGCCCUGCUGGUCCCUUCAGCUCCACGCUGCUGCUCUGGCGAGGUUUUAAAGGGUGCCAUGGGCUCUCACGUCCUUCGUGUUGCAGUAUUUAUUUUUACUGGGUG`, “RBNS enrichment (R)” read 0.404.
`CUCAGGUCUCAGGCACCAGUCCAUGGGUGGUGUUCUGUGAACCCCAUCUCUAAUGCCUUUAAAAGGCUAAAGGGGGCUGAAAGGUCCCUGUAUCAGGUGGUUAACCAAGG`: “RBNS enrichment (R)” 0.389.
`AAGUUGAUUAUCUUCUCUUGAUAUCUUGGUUAAAACUGGCCACAAGAUAAACCAUUUGGAUAUAUUUGAUUUUGUCAUAACAUUUGUAAAGUAUAUGUUUCUCAUGAGAC` — result for “RBNS enrichment (R)”: 0.472.
`UUCAUGCCCCAAGCCUCAGCUAUUGGAAUGGCUUCCAUUCAGUAGCUUCUGUGUUGGUCCUUUGUAGAGAUGGAAGUGGAGCCAUCCUGCUGUGAACAGUUAUGAACCAG` — result for “RBNS enrichment (R)”: 0.244.
Under “RBNS enrichment (R)”, `UUCCUUUCACACAGUAUUUCAGGCUGCUGUGGUGAAUUUGAAUGGCAGAUCCUACAGUCAAUAGAUAAUGAUGAGACUUACAACAUUUCACAUCUCUCUUGAGAAUCCUU` is recorded as 0.364.
`GAGAUCUCUGAAGUGGGAUUGUCUUAUUUUCCUUAGUACAGCCCACUGCCAAAAAGCUUCCUCUGAUGUCAAAUCAGGAUGUAUUACCGAAACUGAUUCCAAGGACAUCC` — result for “RBNS enrichment (R)”: 0.25.
For `CUGUGACCUUUCUUAUUUCCCUGUUAUCAAGGAAACAGUUUUACCUAUUGAGCUAUAAAAAAAAAAAAAAAAAAACCUCUUUAGAUGUUUGCCUCAACAUUCUUUGUCAU`, “RBNS enrichment (R)” read 0.948.

Sample 5 — technique: DHFR PCA, deep sequencing; matrix: yeast; together with: (+)-ABA 710 µM; baseline: wild-type fitted maximum; direction: higher = stronger binding
Target: ABI1, truncated, D143A, DHFR fusion (Arabidopsis thaliana)
Notes: methotrexate growth selection, single substitutions
Starting sequence: PYL1, truncated, DHFR fusion (Arabidopsis thaliana); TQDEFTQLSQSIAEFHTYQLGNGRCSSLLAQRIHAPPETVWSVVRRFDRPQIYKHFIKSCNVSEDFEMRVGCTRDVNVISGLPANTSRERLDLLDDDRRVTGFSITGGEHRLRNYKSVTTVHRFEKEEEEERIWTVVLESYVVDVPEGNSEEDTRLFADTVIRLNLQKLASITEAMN; partner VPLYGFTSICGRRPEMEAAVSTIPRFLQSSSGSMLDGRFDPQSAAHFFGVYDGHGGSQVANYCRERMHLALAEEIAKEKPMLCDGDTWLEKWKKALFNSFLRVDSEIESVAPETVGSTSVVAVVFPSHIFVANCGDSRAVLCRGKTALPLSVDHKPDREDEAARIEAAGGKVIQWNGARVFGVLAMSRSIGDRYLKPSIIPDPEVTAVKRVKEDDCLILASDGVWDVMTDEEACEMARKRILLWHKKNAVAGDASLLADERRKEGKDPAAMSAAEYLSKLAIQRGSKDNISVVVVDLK
Under “relative binding score”, `R74G` is recorded as 1.12%.
`L8V` — result for “relative binding score”: 87.2%.
`S11R`: “relative binding score” 97.7%.
`L91E`: “relative binding score” 8.62%.
`A158T` — result for “relative binding score”: 104%.
For `E109H`, “relative binding score” read 108%.
For `H55N`, “relative binding score” read 102%.
Under “relative binding score”, `F157R` is recorded as -0.648%.
Under “relative binding score”, `Q10R` is recorded as 102%.
`P50L`: “relative binding score” -2.51%.
`K54A`: “relative binding score” -11.1%.
`D3P`: “relative binding score” 105%.
`G108V`: “relative binding score” 34.9%.
`V145E` — result for “relative binding score”: 53.9%.
`S140E`: “relative binding score” 11.7%.
`N177H`: “relative binding score” 110%.
For `D92G`, “relative binding score” read 62.4%.
Under “relative binding score”, `T119K` is recorded as 59.5%.
`A170T` — result for “relative binding score”: 93.6%.
Under “relative binding score”, `R113W` is recorded as 88.7%.

Repeated from above (sample 3):
For `GTCGGACTGCTTTTCCTGACGTGCTAG`, the log fluorescence was 0.613 z-score.
The log fluorescence of `TTAGAACTGGGGACTGGTTTAGTGCTA` is reported as -0.116 z-score.
With `TGCATTCCCTTTCTCAACCTGTGCTAG` the log fluorescence was 2.05 z-score.
With `GTAGATCTCAGACTGGATTAGTGCTAG` the log fluorescence was -0.269 z-score.
